Values quoted from earlier work, collected from citations in different studies.
Each line is one published result; not all experiments were run side by side.

CC(=O)Nc1cccc(-n2c(=O)n(C3CC3)c(=O)c3c(Nc4ccc(I)cc4F)n(C)c(=O)c(C)c32)c1 — Cmax (patients, plasma; dose not given, total concentration): 0.02 µM
CC#CC(=O)N1CC[C@@H](n2c(=O)n(-c3ccc(Oc4ccccc4)cc3)c3c(N)ncnc32)C1 — Cmax (relapsed NHL and CLL patients, plasma; oral, 20 to 600 mg single): 0.0637 to 1.51 µg/mL
Cc1ccccc1-c1cc(N2CCN(C)CC2)ncc1N(C)C(=O)C(C)(C)c1cc(C(F)(F)F)cc(C(F)(F)F)c1 — Cmax (healthy volunteers, plasma; oral, dose not given, netupitant-palonosetron combination, together with: oral contraceptives): 0.6 µg/mL
Nc1nc(NC2CC2)c2ncn([C@H]3C=C[C@@H](CO)C3)c2n1 — Cmax (Japanese HIV-infected patients; 600 mg, single dose, fasted, together with: lamivudine 300 mg): 5.68 µg/mL
O=C1c2cccc3c2[C@H](CCC3)CN1[C@@H]1CN2CCC1CC2 — Cmax (healthy volunteers; oral, 0.75 mg single dose, mean): 0.00164 µg/mL
Cc1nc(Nc2ncc(C(=O)Nc3c(C)cccc3Cl)s2)cc(N2CCN(CCO)CC2)n1 — Cmax (patients, plasma; dose not given, total concentration): 0.21 µM
CC[C@H](C)C(=O)O[C@H]1C[C@H](O)C=C2C=C[C@H](C)[C@H](CC[C@@H](O)C[C@@H](O)CC(=O)O)[C@H]21 — Cmax (plasma; concentration not given): 0.1 µM
C[C@@H](Oc1cc(-c2cnn(C3CCNCC3)c2)cnc1N)c1c(Cl)ccc(F)c1Cl — Cmax (patients, plasma; dose not given, total concentration): 1.24 µM
O=C1c2c(O)ccc(O)c2C(=O)c2c(NCCNCCO)ccc(NCCNCCO)c21 — Cmax (plasma; concentration not given): 1.9 µM
COc1cccc2c1C(=O)c1c(O)c3c(c(O)c1C2=O)C[C@@](O)(C(=O)CO)C[C@@H]3O[C@H]1C[C@H](N)[C@H](O)[C@H](C)O1 — Cmax (patients, plasma; dose not given, total concentration): 2.93 µM
C=CC1=C(C(=O)O)N2C(=O)[C@@H](NC(=O)/C(=N\OCC(=O)O)c3csc(N)n3)[C@H]2SC1 — Cmax (plasma; concentration not given): 7.29 µM
CN(C)C/C=C/C(=O)Nc1cc2c(Nc3ccc(F)c(Cl)c3)ncnc2cc1O[C@H]1CCOC1 — Cmax (patients, plasma; dose not given, total concentration): 0.1 µM
COc1cc2ncnc(Nc3ccc(F)c(Cl)c3)c2cc1OCCCN1CCOCC1 — Cmax (plasma; concentration not given): 0.72 µM
Nc1ccn([C@@H]2CS[C@H](CO)O2)c(=O)n1 — Cmax (Japanese HIV-infected patients; 300 mg, single dose, fasted, together with: abacavir 600 mg): 3.58 µg/mL
Sc1ncnc2nc[nH]c12 — Cmax (plasma; concentration not given): 1 µM
CC1=N[C@]2(C(=O)CO)[C@@H](C[C@H]3[C@@H]4C[C@@H](O)C5=CC(=O)C=C[C@]5(C)[C@H]4[C@@H](O)C[C@@]32C)O1 — Cmax (patients with Duchenne muscular dystrophy, plasma; 0.9 mg/kg/day of deflazacort, steady state, mean): 0.34 µM
